Measured values of several laboratories.
Numbered parts are unrelated; each lists some results of a single study.

Series 1
Target: Sal-like protein 4, full length isoform A (SALL4, Homo sapiens, UniProt Q9UJQ4, residues 1-1053)
Chain of UniProt Q9UJQ4 (whole entry, looked up): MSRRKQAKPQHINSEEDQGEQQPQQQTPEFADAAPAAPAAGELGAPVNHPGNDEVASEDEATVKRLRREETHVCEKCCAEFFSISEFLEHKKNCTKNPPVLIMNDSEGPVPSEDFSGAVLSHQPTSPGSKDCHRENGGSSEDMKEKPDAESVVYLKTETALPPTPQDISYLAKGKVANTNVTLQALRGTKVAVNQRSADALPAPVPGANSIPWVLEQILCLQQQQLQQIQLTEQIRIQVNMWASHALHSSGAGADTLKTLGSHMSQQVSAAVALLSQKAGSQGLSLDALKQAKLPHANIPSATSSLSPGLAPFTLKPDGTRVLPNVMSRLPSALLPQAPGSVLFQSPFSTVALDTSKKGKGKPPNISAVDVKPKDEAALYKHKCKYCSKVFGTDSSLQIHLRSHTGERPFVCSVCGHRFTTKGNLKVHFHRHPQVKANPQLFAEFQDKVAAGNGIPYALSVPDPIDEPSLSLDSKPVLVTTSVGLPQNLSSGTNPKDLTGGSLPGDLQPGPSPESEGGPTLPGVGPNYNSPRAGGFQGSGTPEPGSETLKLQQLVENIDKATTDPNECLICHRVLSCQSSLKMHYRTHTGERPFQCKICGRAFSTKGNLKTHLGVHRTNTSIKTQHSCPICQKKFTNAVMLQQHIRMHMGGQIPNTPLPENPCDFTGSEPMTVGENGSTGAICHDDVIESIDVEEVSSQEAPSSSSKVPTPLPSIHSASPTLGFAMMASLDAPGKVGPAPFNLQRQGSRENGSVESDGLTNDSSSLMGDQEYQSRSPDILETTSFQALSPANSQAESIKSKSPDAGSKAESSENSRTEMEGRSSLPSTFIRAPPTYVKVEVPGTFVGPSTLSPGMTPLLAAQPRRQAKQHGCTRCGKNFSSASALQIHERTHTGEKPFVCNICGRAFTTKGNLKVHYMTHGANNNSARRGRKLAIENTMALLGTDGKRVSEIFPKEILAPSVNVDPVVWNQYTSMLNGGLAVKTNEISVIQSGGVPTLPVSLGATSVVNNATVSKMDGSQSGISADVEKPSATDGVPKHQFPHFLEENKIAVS
Technique: universal PBM
Molecule type: double-stranded DNA, one strand shown
Matrix: in vitro
Tested at: 600 nM
Notes: 8-mer, flanks averaged, mean of replicates
Reading: higher = stronger binding
Strand | E-score
AGGGATCA | -0.0402
ATCTCTAC | 0.128
CCATAGTC | 0.0239
ACGACGGA | -0.0184
AGCGCGTG | -0.174
AATTCCTC | 0.0558
ATGTTGCG | 0.116
ACCGACAG | -0.26

Series 2
Target: Protein max, full length (MAX, Homo sapiens, UniProt P61244-2, residues 1-151)
Technique: protein-binding microarray
Molecule type: double-stranded DNA, one strand shown
Matrix: in vitro
Tested at: not given
Notes: k-mer, scored over probes, only values ≥0.25
Reading: higher = stronger binding
Strand | E-score
ATGCACCC | 0.255
GCACGCAA | 0.277
GGCCATGA | 0.275
CATGCATA | 0.321
CATATGGG | 0.342
ATGTGCTG | 0.35
GATCGCAC | 0.272
CGCATGCG | 0.424

Series 3
Target: Runt-related transcription factor 3, Runt domain (RUNX3, Homo sapiens, UniProt Q13761, residues 53-186)
Chain of UniProt Q13761 (53-186, looked up): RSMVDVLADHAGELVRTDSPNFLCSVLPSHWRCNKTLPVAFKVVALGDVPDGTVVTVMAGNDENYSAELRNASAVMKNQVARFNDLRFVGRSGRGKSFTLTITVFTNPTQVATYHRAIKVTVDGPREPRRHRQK
Technique: protein-binding microarray
Molecule type: hairpin DNA
Matrix: in vitro
Tested at: not given
Notes: whole hairpin DNA, median over replicate spots
Baseline: not given
Reading: higher = stronger binding
Strand | median fluorescence [a.u.]
CTCAGTTCTGTTGGCTGGACTCCTGTCCAGCCAACAGAACTGAGACACTC | 4050
CTCAGTTCTGTGCGCTGGACTCCTGTCCAGCGCACAGAACTGAGACACTC | 4110
GAGGCCCAACGGCAACAGCCTCCTGGCTGTTGCCGTTGGGCCTCACACTC (5mC at 10 34) | 4780
GAGGCCTCTTGTGGTTGGCCTCCTGGCCAACCACAAGAGGCCTCACACTC (5mC at 8) | 5130
GAGGCCTGTCGTGGTTGGCCTCCTGGCCAACCACGACAGGCCTCACACTC (5mC at 10 34) | 5770
GAGGCCGGTCGCGGTTGGCCTCCTGGCCAACCGCGACCGGCCTCACACTC | 6620
GAGGCCTGCTGTGGTTGGCCTCCTGGCCAACCACAGCAGGCCTCACACTC (5mC at 9) | 5090
GAGGCCCAAGCGCAACAGCCTCCTGGCTGTTGCGCTTGGGCCTCACACTC (5mC at 35) | 4960

Single results of other studies
Sequence | target | effect on | molecule type | tested at | measurement | value
MQIDGGEGV | HLA class I histocompatibility antigen, A alpha chain, allele A*25:01 (Homo sapiens, UniProt P04439) | peptide-MHC binding | peptide | concentration not given | binding | inactive

Excerpt of the above (series 3):
Strand | median fluorescence [a.u.]
GAGGCCTGTCGTGGTTGGCCTCCTGGCCAACCACGACAGGCCTCACACTC (5mC at 10 34) | 5770
GAGGCCGGTCGCGGTTGGCCTCCTGGCCAACCGCGACCGGCCTCACACTC | 6620
GAGGCCTGCTGTGGTTGGCCTCCTGGCCAACCACAGCAGGCCTCACACTC (5mC at 9) | 5090
